Assay results collected from several papers.
Each line is one published result; not all experiments were run side by side. Values joined by “and” are separate records of one study, mostly repeats; a detail may differ. ± gives the spread as reported.

SMILES	test	system	conditions	scale	quantity	result
CC(C)C[C@H](NC(=O)[C@H](CCCCN)NC(=O)[C@H](CCC(=O)O)NC(=O)[C@H](C)NC(=O)[C@@H](NC(=O)[C@H](CCCCN)NC(=O)[C@H](CC(=O)O)NC(=O)[C@H](Cc1ccc(O)cc1)NC(=O)[C@H](Cc1ccccc1)NC(=O)[C@H](C)NC(=O)[C@H](CCCCN)NC(=O)[C@H](CC(C)C)NC(=O)[C@H](Cc1c[nH]c2ccccc12)NC(=O)[C@@H](N)CC(=O)O)C(C)C)C(=O)N[C@@H](CCCCN)C(=O)N[C@@H](CCC(=O)O)C(=O)N[C@@H](C)C(=O)N[C@@H](Cc1ccccc1)C(=O)N1CCC[C@H]1C(=O)N[C@@H](CC(=O)O)C(=O)N[C@@H](Cc1c[nH]c2ccccc12)C(=O)N[C@@H](C)C(=O)N[C@@H](CCCCN)C(=O)N[C@@H](C)C(=O)N[C@@H](C)C(=O)N[C@@H](Cc1ccc(O)cc1)C(=O)N[C@@H](CC(=O)O)C(=O)N[C@@H](CCCCN)C(=O)N[C@@H](C)C(=O)N[C@@H](C)C(=O)N[C@@H](CCC(=O)O)C(=O)N[C@@H](CCCCN)C(=O)N[C@@H](C)C(=O)N[C@@H](CCCCN)C(=O)N[C@@H](CCC(=O)O)C(=O)N[C@@H](C)C(=O)N[C@@H](C)C(=O)O		cynomolgus monkey female, plasma	intravenous infusion, 25 mg/kg, day 1, 30 min infusion		Cmax	392 µg/mL
C=Cc1cc(O)cc2nc(-c3ccc(O)c([76Br])c3)oc12		female C57BL/6 mouse, kidney	1 h, low dose		tissue uptake	1.06 ± 0.38 %ID/g
CCc1c2c(nc3ccc(OC4OC(C(=O)O)C(O)C(O)C4O)cc13)-c1cc3c(c(=O)n1C2)COC(=O)C3(O)CC (centres unmarked)		human patients, plasma	intravenous, 177 mg/m^2 of parent drug		Tmax	5.35 h
CC[C@H](C)[C@H](NC(=O)[C@H](Cc1ccccc1)NC(=O)[C@H](CCC(N)=O)NC(=O)[C@H](CCSC)NC(=O)[C@@H](NC(=O)[C@H](CCC(N)=O)NC(=O)[C@H](CCCCN)NC(=O)[C@H](Cc1ccc(O)cc1)NC(=O)[C@H](Cc1ccccc1)NC(=O)[C@H](CCCCN)NC(=O)[C@H](CCCCN)NC(=O)[C@@H](NC(=O)[C@H](Cc1ccccc1)NC(=O)[C@@H]1CCCN1C(=O)[C@H](Cc1c[nH]c2ccccc12)NC(=O)CNC(=O)[C@H](Cc1ccccc1)NC(=O)[C@H](CCCCN)NC(=O)[C@H](C)NC(=O)[C@@H](NC(=O)[C@H](CC(C)C)NC(=O)[C@H](CCCCN)NC(=O)[C@H](C)NC(=O)[C@H](CCCNC(=N)N)NC(=O)[C@H](C)NC(=O)CNC(=O)[C@@H](N)CCSC)C(C)C)[C@@H](C)CC)[C@@H](C)CC)C(=O)NCC(=O)N[C@@H](CCC(N)=O)C(=O)NCC(=O)N[C@@H](Cc1c[nH]c2ccccc12)C(=O)N[C@H](C(=O)N[C@H](C(=O)N[C@@H](CC(=O)O)C(=O)N[C@@H](CCC(N)=O)C(=O)N[C@H](C(=O)N[C@@H](CCC(=O)O)C(=O)N[C@@H](CCCCN)C(=O)N[C@@H](Cc1c[nH]c2ccccc12)C(=O)N[C@@H](CC(C)C)C(=O)N[C@@H](CCCCN)C(=O)N[C@@H](CCCNC(=N)N)C(=O)N[C@@H](Cc1c[nH]cn1)C(=O)O)[C@@H](C)CC)[C@@H](C)CC)[C@@H](C)O	thermal unfolding, far-UV CD	10 mM sodium phosphate	5-20 µM, pH 7.2		Tm	44.6 ± 0.3 °C
Cc1cccc(-c2cccc(C)n2)n1.[Cl-].[Cl-].[Ru+2].c1ccc(-c2ccccn2)nc1.c1ccc(-c2ccccn2)nc1		phosphate buffer with NaCl	concentration not given, pH 7.4, 37 °C, dark, dialysis		total release from nanoassemblies	90%
CSCC[C@H](NC(=O)CNC(=O)[C@H](CC(=O)O)NC(=O)[C@@H](NC(=O)[C@@H](NC(=O)[C@@H](NC(=O)CNC(=O)[C@H](CCC(N)=O)NC(=O)[C@H](CCSC)NC(=O)[C@H](CC(=O)O)NC(=O)[C@H](C)NC(=O)[C@H](C)NC(=O)[C@@H](NC(=O)[C@H](CO)NC(=O)[C@@H](N)CC(C)C)[C@@H](C)O)C(C)C)C(C)C)[C@@H](C)O)C(=O)N[C@@H](C)C(=O)N[C@@H](CO)C(=O)NCC(=O)N[C@@H](CC(C)C)C(=O)N[C@@H](CC(=O)O)C(=O)N[C@@H](CCCCN)C(=O)N[C@@H](CC(=O)O)C(=O)N[C@@H](Cc1ccc(O)cc1)C(=O)N[C@@H](CC(C)C)C(=O)N[C@@H](CCCCN)C(=O)N1CCC[C@H]1C(=O)N[C@@H](CC(=O)O)C(=O)N[C@@H](CC(=O)O)C(=O)O		human patients, serum	intravenous infusion, 2 mg/kg		distribution half-life	50.4 s
CC(C)C[C@H](NC(=O)[C@H](Cc1ccccc1)NC(=O)CNC(=O)C/C=C(\F)[C@@H](N)Cc1ccc(O)cc1)C(=O)O		BALB/c mice, brain	oral, 400 mg/kg, 5 min		brain concentration	0.005 to 0.008 µg/mL
CN[C@](C)(C[18F])C(=O)O		SCID mouse SK-OV-3 xenograft, brain	30 min, post injection		tissue uptake	0.3 ± 0.1 %ID/g
COc1cc(C(=O)NCCOCCOCCOCCNC(=O)c2ccc([18F])nc2)ccc1NC(=O)C1NC(CC(C)(C)C)C(C#N)(c2ccc(Cl)cc2F)C1c1cccc(Cl)c1F (centres unmarked)		athymic male mice, SJSA-1 xenograft	1 h	relative to: tumour over liver	tumour-to-tissue ratio	0.82 ± 0.08
Cc1cc(-c2ccc3ccccc3c2)nnc1NCCN1CCN(C)CC1		female rat, plasma	oral		bioavailability	35.6%
O=C(O)CCC(NP(=O)(O)OCCC[C@@H](NC(=O)CCC(NC(=O)CCCCCNC(=O)CCCCCNC(=O)c1ccc([18F])cc1)C(=O)O)C(=O)O)C(=O)O (some centres unmarked)	radioactivity	mouse, CWR22Rv1 xenograft	1 h	relative to: tumour over blood	tumour to blood ratio	24 and 24.2
C(#Cc1cncc(OC[C@@H]2CCN2)c1)c1ccccc1		Caco-2	100 µM, 2 h, pH 7.4		Papp A→B	21.1 ×10⁻⁶ cm/s
CC[C@H](C)[C@@H]1NC(=O)[C@H](Cc2c[nH]c3ccccc23)NC(=O)[C@H]([C@@H](C)O)NC(=O)[C@H]([C@@H](C)CC)NC(=O)[C@H](CCSC)NC(=O)CCCC(=O)NCCCC[C@@H](C(N)=O)NC(=O)[C@H](CO)NC(=O)[C@@H]2CCCN2C(=O)[C@H](CO)NC(=O)[C@H]([C@@H](C)CC)NC(=O)[C@H](Cc2ccccc2)NC(=O)[C@H](CC(=O)O)NC1=O		human serum		relative to: cyclic over linear peptide	serum half-life	20 fold
O=C([O-])C[N+]12CC(=O)[O][Re-2]1[O]P(=O)([O-])C2.[C-]#[O+].[C-]#[O+].[C-]#[O+] (centres unmarked)	HPLC	aqueous solution	1 d, pH 4, room temperature		isomer fraction at equilibrium	4%
N=C(N)NCc1ccc(C(=O)NCCCC[C@H](NC(=O)CCCCCCC(=O)NCCCC[C@H](NC(=O)N[C@@H](CCC(=O)O)C(=O)O)C(=O)O)C(=O)O)cc1[211At]		SCID mouse, PC-3 xenografts, liver	2 h		tissue uptake	3.8 ± 2.39 %ID/g
CN(C)c1ccc(C(=O)NCCCCN2CCN(c3ccccc3O[11CH3])CC2)cc1		male Sprague Dawley rat, brain	intravenous, together with: ciclosporin	relative to: ciclosporin over untreated	brain uptake ratio	8.82
CC(C)[C@H](NC(=O)CNC(=O)[C@H](CCC(N)=O)NC(=O)[C@H](C)N)C(=O)O		human	intravenous infusion, 15 mg/kg/h, 2 h infusion		subjects with moderate adverse events	0%
CC[C@@H](C)[C@H](NC(=O)[C@H](C)NC(=O)[C@H](CCCCN)NC(=O)[C@H](CC(C)C)NC(=O)[C@H](C)NC(=O)[C@@H](NC(=O)[C@H](Cc1c[nH]cn1)NC(=O)[C@H](CC(C)C)NC(=O)[C@@H](NC(=O)[C@@H](NC(=O)[C@H](CCCCN)NC(=O)[C@H](CCCCN)NC(=O)[C@H](C)NC(=O)[C@H](CO)NC(=O)[C@H](CCCCN)NC(=O)[C@H](Cc1ccccc1)NC(=O)[C@@H](NC(=O)[C@H](CCCCN)NC(=O)[C@H](CC(C)C)NC(=O)[C@H](Cc1ccccc1)NC(=O)[C@H](CO)NC(=O)[C@H](CCCCN)NC(=O)[C@H](Cc1c[nH]c2ccccc12)NC(=O)[C@H](CCCCN)NC(C)=O)[C@@H](C)O)[C@@H](C)O)C(C)C)[C@@H](C)O)C(=O)N[C@@H](CO)C(=O)N[C@@H](CO)C(N)=O	RP-HPLC	Zorbax 300 SB-C8 column	30 °C		retention time	28 min
CC(C)C[C@H](NC(=O)[C@H](CCCCN)NC(=O)[C@H](C)NC(=O)[C@H](CC(C)C)NC(=O)[C@H](CCCCN)NC(=O)[C@H](CCCCN)NC(=O)[C@H](C)NC(=O)[C@H](CC(C)C)NC(=O)[C@H](CCCCN)NC(=O)[C@H](C)NC(=O)[C@H](CC(C)C)NC(=O)[C@H](CCCCN)NC(=O)[C@H](Cc1c[nH]cn1)NC(=O)CNC(=O)CN)C(=O)N[C@@H](C)C(=O)N[C@@H](CCCCN)C(N)=O	haemolysis	human red blood cells	1 h		HD10	4 µM
CCCCCCCC(=O)OC[C@H](NC(=O)[C@H](CO)NC(=O)CN)C(=O)N[C@@H](Cc1ccccc1)C(=O)N[C@@H](CC(C)C)C(=O)N[C@@H](CO)C(=O)N1CCC[C@H]1C(=O)N[C@@H](CCC(=O)O)C(=O)N[C@@H](Cc1cnc[nH]1)C(=O)N[C@@H](CCC(N)=O)C(=O)N[C@@H](CCCNC(=N)N)C(=O)N[C@H](C(=O)N[C@@H](CCC(N)=O)C(=O)N[C@@H](CCC(N)=O)C(=O)N[C@@H](CCCNC(=N)N)C(=O)N[C@@H](CCCCN)C(=O)N[C@@H](CCC(=O)O)C(=O)N[C@@H](CO)C(=O)N[C@@H](CCCCN)C(=O)N[C@@H](CCCCN)C(=O)N1CCC[C@H]1C(=O)N1CCC[C@H]1C(=O)N[C@@H](C)C(=O)N[C@@H](CCCCN)C(=O)N[C@@H](CC(C)C)C(=O)N[C@@H](CCC(N)=O)C(=O)N1CCC[C@H]1C(=O)N[C@@H](CCCNC(=N)N)C(=O)O)C(C)C	ELISA	healthy humans, both sexes, plasma	intravenous infusion, 1 µg/kg/h, 210 min		AUC(0-last)	4.46 ± 3.01 ng·h/mL
CC(=CCC(O)C(C)=Cc1csc(C)n1)CC=CC(C)C(O)C(C)C(=O)C(C)(C)C(O)CC(=O)O (centres unmarked)		human, plasma	intravenous infusion, 8.5 mg/m2 KOS-1584, 3 h infusion, cycle 1		half-life	19.2 ± 2.69 h
CN(C)C(CNC(=O)Nc1cc(C(F)(F)F)ccc1N1CCOCC1)c1ccncc1 (centres unmarked)		mouse, serum	intraperitoneal, 120 mg/kg single dose		serum alkaline phosphatase	72 U/L
O=C(O)CC[C@H](NC(=O)O[C@@H](CCCCNC(=O)c1ccc([18F])cc1)C(=O)O)C(=O)O		mouse, PC-3 PIP/flu xenografts, heart	30 min		tissue uptake	1.12 ± 0.74 %ID/g
CC(C)N1CCCCC1C(=O)NC(Cc1ccc(-c2ccccc2)cc1)B(O)O (centres unmarked)		Pf3D7 0087/N9, NODscidIL2Rγnull mice infected with P. falciparum	oral, dose not given		tolerability	not toxic
COc1ccc(C)cc1NC(=O)OC1CC2CCCC(C1)N2Cc1ccc(CC[18F])cc1 (centres unmarked)		mouse, fat	1 h, tumour-bearing		tracer uptake	8.49 %ID/g
CC[C@H](C)C(=O)N1CCC(NC(=O)Nc2ccc(OC(F)(F)F)c(F)c2)CC1		healthy volunteers	oral, 24 mg single dose		subjects with palpitations TEAE	0%
COC(=O)C[C@](O)(CCCC(C)(C)OC(C)=O)C(=O)O[C@@H]1C(OC)=C[C@]23CCCN2CCc2cc4c(cc2[C@H]13)OCO4		CD1 mouse, spleen	oral, 1 mg/kg, 2 h		tissue concentration	443 ng/mL
COc1ccc([C@@H]2N=NC(NCCc3c[nH]c4ccc(C)cc34)=NC2=O)cc1		porcine brain lipid	100 µg/mL, 18 h, pH 7.4		permeability (Pe)	4.69 ± 0.2 ×10⁻⁶ cm/s
CC[C@H](C)CCCCC(=O)N[C@@H](CCN)C(=O)N[C@H](C(=O)N[C@@H](CCN)C(=O)N[C@H]1CCNC(=O)[C@H]([C@@H](C)O)NC(=O)[C@H](CCN)NC(=O)[C@H](CCN)NC(=O)[C@H](CC(C)C)NC(=O)[C@@H](Cc2ccccc2)NC(=O)[C@H](CCN)NC1=O)[C@@H](C)O	ELISA	male CD-1 mouse, urine	subcutaneous, 12.5 mg/kg, 4 doses every 8 h, 24 h urine collection, nephrotoxicity		urinary cystatin C excretion	591 ng/24 h

A few entries again:
SMILES	test	system	conditions	scale	quantity	result
CCCCCCCC(=O)OC[C@H](NC(=O)[C@H](CO)NC(=O)CN)C(=O)N[C@@H](Cc1ccccc1)C(=O)N[C@@H](CC(C)C)C(=O)N[C@@H](CO)C(=O)N1CCC[C@H]1C(=O)N[C@@H](CCC(=O)O)C(=O)N[C@@H](Cc1cnc[nH]1)C(=O)N[C@@H](CCC(N)=O)C(=O)N[C@@H](CCCNC(=N)N)C(=O)N[C@H](C(=O)N[C@@H](CCC(N)=O)C(=O)N[C@@H](CCC(N)=O)C(=O)N[C@@H](CCCNC(=N)N)C(=O)N[C@@H](CCCCN)C(=O)N[C@@H](CCC(=O)O)C(=O)N[C@@H](CO)C(=O)N[C@@H](CCCCN)C(=O)N[C@@H](CCCCN)C(=O)N1CCC[C@H]1C(=O)N1CCC[C@H]1C(=O)N[C@@H](C)C(=O)N[C@@H](CCCCN)C(=O)N[C@@H](CC(C)C)C(=O)N[C@@H](CCC(N)=O)C(=O)N1CCC[C@H]1C(=O)N[C@@H](CCCNC(=N)N)C(=O)O)C(C)C	ELISA	healthy humans, both sexes, plasma	intravenous infusion, 1 µg/kg/h, 210 min		AUC(0-last)	4.46 ± 3.01 ng·h/mL
CC(=CCC(O)C(C)=Cc1csc(C)n1)CC=CC(C)C(O)C(C)C(=O)C(C)(C)C(O)CC(=O)O (centres unmarked)		human, plasma	intravenous infusion, 8.5 mg/m2 KOS-1584, 3 h infusion, cycle 1		half-life	19.2 ± 2.69 h
